{"data": "Measurements collected from several papers", "cell line": "HT-1080", "note": "Compare with care: the assays were run in different laboratories. pEC50, pIC50: −log10 of the molar value."}
{"SMILES": "CC/C(=C(\\c1ccccc1)c1ccc(OCCN(C)CCCCCC(=O)NCCc2c[nH]c3ccc(OC)cc23)cc1)c1ccccc1", "test": "cell survival, MTT", "conditions": "day 9, dosed days 2, 4, 7", "measurement": "pIC50", "result": 4.84}
{"SMILES": "CC(C)C[C@@H](/C=C/[C@H](Cc1ccccc1)C(=O)N1CCC[C@H]1C(=O)N[C@H](C(=O)N[C@@H](CCCNC(=O)OCc1ccccc1)C(=O)NC1CC(C)(C)N([O])C(C)(C)C1)C(C)C)NC(=O)OCC[S+]([O-])CC1(C)COC1 (stereo partly shown)", "test": "protection from ferroptosis, PrestoBlue", "conditions": "24 h, added: erastin 10 µM", "measurement": "pEC50", "result": 5.46}
{"SMILES": "CC(C)C[C@@H]1NC(=O)[C@H](CC(C)C)NC(=O)[C@H](Cc2ccccc2)NC(=O)[C@@H]2CSSC[C@@H](C(=O)O)NC(=O)[C@H](CSSC[C@H](N)C(=O)N3CCC[C@H]3C(=O)N2)NC(=O)CNC1=O", "conditions": "concentration not given, added: fibronectin or fibrinogen", "measurement": "cell adhesion", "result": "no effect"}
{"SMILES": "CC/C(=C(\\c1ccccc1)c1ccc(OCCN(C)CCCCC(=O)NCCc2c[nH]c3ccc(OC)cc23)cc1)c1ccccc1", "test": "cell survival, MTT", "conditions": "day 9, dosed days 2, 4, 7", "measurement": "pIC50", "result": 5.16}
{"SMILES": "Cc1cc(C)nc(NC(=S)N2CCN(Cc3ccc(C(F)(F)F)cc3)CC2)c1", "test": "cell viability, CellTiter-Glo", "conditions": "4 days", "measurement": "pEC50", "result": 4.85}
{"SMILES": "CC(C)C[C@@H](/C=C/CC(=O)N1CCC[C@H]1C(=O)N[C@H](C(=O)N[C@@H](CCCNC(=O)OCc1ccccc1)C(=O)NC1CC(C)(C)N([O])C(C)(C)C1)C(C)C)NC(=O)OCC[S+]([O-])CC1(C)COC1 (stereo partly shown)", "test": "protection from ferroptosis, PrestoBlue", "conditions": "24 h, added: erastin 10 µM", "measurement": "pEC50", "result": "< 5.00"}
{"SMILES": "COc1ccc(/N=N/C(=S)N2CCOCC2)cc1", "test": "cell growth or viability, resazurin", "conditions": "48 h", "measurement": "pIC50", "result": "< 4.30"}
{"SMILES": "COC(=O)C1CN1S(=O)(=O)c1ccc2c(C=O)c(N(C)C)ccc2c1 (stereo not shown)", "test": "cell growth or viability, MTT", "conditions": "48 h", "measurement": "pIC50", "result": 5.10}
{"SMILES": "COc1ccc(/N=N/C(=S)N2CCCC2)cc1", "test": "cell growth or viability, resazurin", "conditions": "48 h", "measurement": "pIC50", "result": "< 4.30"}
{"SMILES": "CCNC(=O)Nc1ccc(S(=O)(=O)Oc2ccccc2CC)cc1", "test": "cell growth or viability, SRB", "conditions": "48 h", "measurement": "pIC50", "result": 6.43}
